Assay results collected from several papers.
A part holds a random share of what one study measured.
UniProt Q9Y2K2, sequence (whole entry, looked up): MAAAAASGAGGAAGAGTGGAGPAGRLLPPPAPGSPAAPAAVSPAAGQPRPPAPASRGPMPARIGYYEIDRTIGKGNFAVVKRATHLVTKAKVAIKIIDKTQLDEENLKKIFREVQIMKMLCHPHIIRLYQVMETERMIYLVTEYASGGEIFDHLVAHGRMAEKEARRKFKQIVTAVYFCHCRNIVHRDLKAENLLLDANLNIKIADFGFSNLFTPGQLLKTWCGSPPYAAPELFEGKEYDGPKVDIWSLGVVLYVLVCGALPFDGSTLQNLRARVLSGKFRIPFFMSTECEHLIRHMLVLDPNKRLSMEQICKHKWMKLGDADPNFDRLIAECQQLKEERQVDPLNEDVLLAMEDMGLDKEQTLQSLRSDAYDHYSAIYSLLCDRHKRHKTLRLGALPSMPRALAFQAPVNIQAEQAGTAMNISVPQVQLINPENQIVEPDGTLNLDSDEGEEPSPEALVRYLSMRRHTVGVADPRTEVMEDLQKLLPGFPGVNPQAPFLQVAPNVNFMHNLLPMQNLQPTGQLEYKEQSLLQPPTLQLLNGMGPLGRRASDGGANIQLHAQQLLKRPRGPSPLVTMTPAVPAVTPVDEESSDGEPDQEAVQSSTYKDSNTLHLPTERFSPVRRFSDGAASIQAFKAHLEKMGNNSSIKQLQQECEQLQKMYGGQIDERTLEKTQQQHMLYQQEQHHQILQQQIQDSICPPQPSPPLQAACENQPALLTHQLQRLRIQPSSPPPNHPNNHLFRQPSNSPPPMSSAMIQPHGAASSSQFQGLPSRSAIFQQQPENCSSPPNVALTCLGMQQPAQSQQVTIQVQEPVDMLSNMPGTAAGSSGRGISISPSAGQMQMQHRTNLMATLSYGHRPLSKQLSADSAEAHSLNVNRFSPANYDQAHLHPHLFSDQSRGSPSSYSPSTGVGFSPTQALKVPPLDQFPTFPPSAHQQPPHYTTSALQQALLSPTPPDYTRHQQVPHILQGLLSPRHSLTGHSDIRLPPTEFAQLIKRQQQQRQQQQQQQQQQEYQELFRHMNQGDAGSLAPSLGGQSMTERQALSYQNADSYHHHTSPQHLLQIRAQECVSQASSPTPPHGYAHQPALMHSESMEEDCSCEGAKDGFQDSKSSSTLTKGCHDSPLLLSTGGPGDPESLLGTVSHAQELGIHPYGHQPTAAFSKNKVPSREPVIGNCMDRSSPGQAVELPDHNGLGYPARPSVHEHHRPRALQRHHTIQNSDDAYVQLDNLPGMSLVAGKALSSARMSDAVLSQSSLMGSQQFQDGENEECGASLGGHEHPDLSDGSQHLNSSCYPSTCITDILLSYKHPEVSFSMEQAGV
UniProt Q13164, sequence (whole entry, looked up): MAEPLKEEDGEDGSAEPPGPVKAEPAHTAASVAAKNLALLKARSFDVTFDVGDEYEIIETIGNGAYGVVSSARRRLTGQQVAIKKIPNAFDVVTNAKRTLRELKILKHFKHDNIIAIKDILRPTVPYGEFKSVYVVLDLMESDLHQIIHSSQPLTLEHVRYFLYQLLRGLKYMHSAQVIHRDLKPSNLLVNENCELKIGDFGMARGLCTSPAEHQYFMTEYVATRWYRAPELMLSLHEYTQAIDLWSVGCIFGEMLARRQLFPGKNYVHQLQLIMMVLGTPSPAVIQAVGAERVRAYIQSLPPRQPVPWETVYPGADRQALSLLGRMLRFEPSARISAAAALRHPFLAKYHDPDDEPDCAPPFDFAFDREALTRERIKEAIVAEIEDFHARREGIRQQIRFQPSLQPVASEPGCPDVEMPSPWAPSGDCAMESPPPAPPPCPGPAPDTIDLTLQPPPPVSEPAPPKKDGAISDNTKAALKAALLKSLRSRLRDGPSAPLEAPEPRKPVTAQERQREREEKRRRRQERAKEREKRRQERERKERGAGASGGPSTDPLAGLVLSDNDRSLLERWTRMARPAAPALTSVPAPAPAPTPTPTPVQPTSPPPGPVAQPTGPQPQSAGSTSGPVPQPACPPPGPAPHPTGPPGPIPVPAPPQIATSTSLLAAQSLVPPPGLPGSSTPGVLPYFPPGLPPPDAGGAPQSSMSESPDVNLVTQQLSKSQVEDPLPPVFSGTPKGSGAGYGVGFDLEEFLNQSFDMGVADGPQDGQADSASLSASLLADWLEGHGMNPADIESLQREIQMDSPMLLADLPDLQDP
UniProt P35626, sequence (whole entry, looked up): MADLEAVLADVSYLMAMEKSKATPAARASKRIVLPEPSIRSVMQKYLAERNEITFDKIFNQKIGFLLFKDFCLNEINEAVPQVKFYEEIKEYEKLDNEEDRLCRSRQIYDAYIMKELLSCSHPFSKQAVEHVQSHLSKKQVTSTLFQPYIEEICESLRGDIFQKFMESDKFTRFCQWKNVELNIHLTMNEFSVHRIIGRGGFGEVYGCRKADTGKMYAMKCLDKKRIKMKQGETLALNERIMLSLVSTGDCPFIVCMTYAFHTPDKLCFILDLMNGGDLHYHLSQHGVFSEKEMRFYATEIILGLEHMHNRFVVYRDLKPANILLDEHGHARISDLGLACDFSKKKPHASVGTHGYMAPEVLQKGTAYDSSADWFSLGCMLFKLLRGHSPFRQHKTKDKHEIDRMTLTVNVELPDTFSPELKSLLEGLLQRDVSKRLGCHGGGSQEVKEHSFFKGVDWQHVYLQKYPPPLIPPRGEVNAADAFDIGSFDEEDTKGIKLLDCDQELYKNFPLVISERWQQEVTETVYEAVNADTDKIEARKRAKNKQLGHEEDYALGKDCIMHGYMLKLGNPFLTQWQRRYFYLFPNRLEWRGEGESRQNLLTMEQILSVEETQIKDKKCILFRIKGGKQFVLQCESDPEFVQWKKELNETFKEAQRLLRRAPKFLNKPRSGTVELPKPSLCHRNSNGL
UniProt P24723, sequence (whole entry, looked up): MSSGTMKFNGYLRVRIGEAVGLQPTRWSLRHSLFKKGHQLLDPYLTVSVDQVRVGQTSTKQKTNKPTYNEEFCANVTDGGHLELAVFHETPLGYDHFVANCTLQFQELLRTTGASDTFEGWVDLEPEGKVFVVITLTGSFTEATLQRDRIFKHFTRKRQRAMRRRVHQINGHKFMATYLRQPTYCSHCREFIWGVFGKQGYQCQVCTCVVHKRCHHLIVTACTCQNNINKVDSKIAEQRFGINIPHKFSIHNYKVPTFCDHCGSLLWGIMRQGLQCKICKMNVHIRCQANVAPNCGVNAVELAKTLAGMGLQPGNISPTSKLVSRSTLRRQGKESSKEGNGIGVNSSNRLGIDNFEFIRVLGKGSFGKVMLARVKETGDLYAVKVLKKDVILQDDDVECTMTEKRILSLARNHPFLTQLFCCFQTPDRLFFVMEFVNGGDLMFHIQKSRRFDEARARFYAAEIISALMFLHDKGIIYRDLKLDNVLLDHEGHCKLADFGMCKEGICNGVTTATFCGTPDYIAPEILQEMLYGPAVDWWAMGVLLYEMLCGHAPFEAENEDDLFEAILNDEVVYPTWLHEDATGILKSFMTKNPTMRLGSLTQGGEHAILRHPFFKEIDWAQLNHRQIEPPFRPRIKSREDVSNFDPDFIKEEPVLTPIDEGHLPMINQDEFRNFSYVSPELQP
UniProt Q16539, sequence (whole entry, looked up): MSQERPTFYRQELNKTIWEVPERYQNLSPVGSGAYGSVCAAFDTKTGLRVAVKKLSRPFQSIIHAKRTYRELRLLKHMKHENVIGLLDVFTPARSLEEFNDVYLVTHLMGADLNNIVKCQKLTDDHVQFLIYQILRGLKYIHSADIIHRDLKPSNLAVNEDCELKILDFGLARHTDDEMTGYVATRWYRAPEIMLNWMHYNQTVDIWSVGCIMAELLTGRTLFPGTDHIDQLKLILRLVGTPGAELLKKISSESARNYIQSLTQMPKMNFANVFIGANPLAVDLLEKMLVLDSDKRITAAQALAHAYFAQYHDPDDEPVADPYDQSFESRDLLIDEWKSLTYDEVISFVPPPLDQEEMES
UniProt Q9Y2U5, sequence (whole entry, looked up): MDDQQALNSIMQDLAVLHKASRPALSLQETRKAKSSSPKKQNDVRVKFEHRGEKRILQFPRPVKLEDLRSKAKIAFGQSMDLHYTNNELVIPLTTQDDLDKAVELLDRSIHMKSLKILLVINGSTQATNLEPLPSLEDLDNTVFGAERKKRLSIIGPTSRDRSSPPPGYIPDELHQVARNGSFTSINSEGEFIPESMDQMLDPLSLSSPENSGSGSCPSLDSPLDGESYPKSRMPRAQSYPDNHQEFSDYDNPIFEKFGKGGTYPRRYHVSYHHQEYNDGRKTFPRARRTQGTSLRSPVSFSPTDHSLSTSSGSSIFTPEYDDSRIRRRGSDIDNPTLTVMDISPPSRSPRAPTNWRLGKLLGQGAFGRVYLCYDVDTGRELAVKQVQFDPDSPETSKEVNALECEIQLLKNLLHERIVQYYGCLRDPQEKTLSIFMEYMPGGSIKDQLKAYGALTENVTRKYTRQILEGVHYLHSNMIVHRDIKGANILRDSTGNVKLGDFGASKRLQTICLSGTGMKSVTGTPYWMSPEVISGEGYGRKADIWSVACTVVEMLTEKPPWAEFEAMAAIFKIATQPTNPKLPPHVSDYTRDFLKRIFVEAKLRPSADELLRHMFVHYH

Series 1 — method: protein-binding microarray; molecule type: double-stranded DNA, one strand shown; matrix: in vitro; tested at: 940 nM top; notes: 60-bp whole probe; together with: salmon DNA 0.4 mg/ml; baseline: random background probes; direction: higher = stronger binding; shared flanks, not repeated: GCCTAGCAC … GTCTTGATTCGCTTGACGCTGCTG
Target: Interferon regulatory factor 5, full length, phosphomimetic (IRF5, Homo sapiens, UniProt Q13568-2, residues 1-514, S451D/S453D/S456D/S462D)
| Oligonucleotide | fitted relative affinity |
| --- | --- |
| GACGCTTTCGGACTGGGGACGTGCTAG | 1.75 z-score |
| GACAGTATCGACTATCGGGACGTGCTA | 5.01 z-score |
| TCATCTATCTCTGTTTTACTGTGCTAG | 1.47 z-score |
| TTACGTTTCGACACTGGGTTAGTGCTA | 4.32 z-score |
| TCACCTTTGCTTTCCTGACTGTGCTAG | 1.02 z-score |
| CTTTTTTTGGTAATAGTGAAGTGCTAG | 0.418 z-score |
| GACAGTATCGACACTGGGGACGTGCTA | 4.74 z-score |
| GTCTGTTTGGGTCTTGTCTGGTGCTAG | 0.251 z-score |

Series 2 — method: protein-binding microarray; molecule type: hairpin DNA; matrix: in vitro; tested at: not given; baseline: not given; direction: higher = stronger binding; shared flanks, not repeated: GAGGCCG … CGGCCTCACACTC
Target: Homeobox protein Hox-B13, full length (HOXB13, Homo sapiens, UniProt Q92826, residues 1-284)
UniProt Q92826, sequence (whole entry, looked up): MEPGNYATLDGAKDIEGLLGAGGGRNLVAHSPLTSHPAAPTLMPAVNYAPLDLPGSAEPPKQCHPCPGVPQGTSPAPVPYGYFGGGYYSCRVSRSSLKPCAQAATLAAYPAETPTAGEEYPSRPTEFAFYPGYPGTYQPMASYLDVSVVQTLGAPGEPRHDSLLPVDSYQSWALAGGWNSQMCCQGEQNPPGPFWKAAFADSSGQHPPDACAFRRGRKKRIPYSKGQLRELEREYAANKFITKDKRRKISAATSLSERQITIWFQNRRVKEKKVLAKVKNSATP
Notes: whole hairpin DNA, median over replicate spots
| Oligonucleotide | median fluorescence [a.u.] |
| --- | --- |
| TCTTACGAGGGCCTCCTGGCCCTCGTAAGA (5mC at 9) | 4170 |
| TCGTACGAGGGCCTCCTGGCCCTCGTACGA (5mC at 35) | 4090 |
| TTTTTCGAGGGCCTCCTGGCCCTCGAAAAA | 3730 |
| CGTTATTGGGGCCTCCTGGCCCCAATAACG (5mC at 8 36) | 4460 |
| TTTTACGACGGCCTCCTGGCCGTCGTAAAA (5mC at 16 28) | 4430 |
| TTATATTGGGGCCTCCTGGCCCCAATATAA | 4490 |
| TTTCGTTGGGGCCTCCTGGCCCCAACGAAA (5mC at 33) | 4110 |
| TTTTGCGAGGGCCTCCTGGCCCTCGCAAAA | 4190 |

Series 3 — observed: cell-free assay; method: competition with immobilised ligand; tested at: 1 µM
Compound: Cn1nc(C(F)(F)F)cc1-c1cnc(N2CCc3cc(S(=O)(=O)Nc4c(F)cc(Cl)cc4F)cc(N4CCCC4=O)c32)nc1
| target | remaining binding [%] |
| --- | --- |
| Ribosomal protein S6 kinase alpha-5, N-terminal kinase domain (RPS6KA5, Homo sapiens, UniProt O75582) | 86 |
| PRKCH (Homo sapiens, UniProt P24723) | 90 |
| MAST1 (Homo sapiens, UniProt Q9Y2H9) | 100 |
| MAP3K2 (Homo sapiens, UniProt Q9Y2U5) | 95 |
| WNK2 (Homo sapiens, UniProt Q9Y3S1) | 81 |
| GRK3 (Homo sapiens, UniProt P35626) | 82 |
| SIK3 (Homo sapiens, UniProt Q9Y2K2) | 94 |
| MAPK7 (Homo sapiens, UniProt Q13164) | 100 |
| MAPK14 (Homo sapiens, UniProt Q16539) | 100 |
| PAK4 (Homo sapiens, UniProt O96013) | 100 |
| IRAK4 (Homo sapiens, UniProt Q9NWZ3) | 82 |

Series 4 — observed: enzyme activity; action: inhibitor; tested at: 0.5 µM; baseline: control
Target: Activin receptor type-1 (ACVR1, Homo sapiens, UniProt Q04771)
Target sequence (Q04771 1-509): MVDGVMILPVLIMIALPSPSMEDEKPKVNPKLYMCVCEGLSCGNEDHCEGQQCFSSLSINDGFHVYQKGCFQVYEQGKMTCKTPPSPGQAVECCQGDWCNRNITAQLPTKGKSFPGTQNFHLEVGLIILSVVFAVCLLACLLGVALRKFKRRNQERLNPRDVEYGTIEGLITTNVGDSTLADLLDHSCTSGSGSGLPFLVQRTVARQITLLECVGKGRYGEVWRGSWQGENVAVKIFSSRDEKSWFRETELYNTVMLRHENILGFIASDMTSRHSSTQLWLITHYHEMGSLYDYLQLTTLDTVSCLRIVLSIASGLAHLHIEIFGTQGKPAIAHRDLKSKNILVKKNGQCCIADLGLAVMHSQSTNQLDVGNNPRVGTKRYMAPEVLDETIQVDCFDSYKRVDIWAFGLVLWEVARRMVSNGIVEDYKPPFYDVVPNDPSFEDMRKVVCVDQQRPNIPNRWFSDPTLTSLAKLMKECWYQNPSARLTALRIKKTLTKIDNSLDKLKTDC
| SMILES | remaining activity [%] |
| --- | --- |
| N#CC(C#N)=C(N)/C(C#N)=C/c1ccc(O)cc1 | 93.8 |
| COc1ccc(OC)c2c(=S)c3ccccc3[nH]c12 | 99.2 |
| O=C1NC(=O)C(c2cn(CCCO)c3ncccc23)=C1c1cnccn1 | 97 |
| O=c1c2ccccc2[nH]c(=S)n1CCN1CCC(=C(c2ccc(F)cc2)c2ccc(F)cc2)CC1 | 107 |

Repeated from above (series 3):
| target | remaining binding [%] |
| --- | --- |
| PRKCH (Homo sapiens, UniProt P24723) | 90 |
| MAST1 (Homo sapiens, UniProt Q9Y2H9) | 100 |
| MAP3K2 (Homo sapiens, UniProt Q9Y2U5) | 95 |
